Published values collected from several papers.
Numbered parts are unrelated; each lists some results of a single study.
Chain of UniProt P28222 (whole entry, looked up): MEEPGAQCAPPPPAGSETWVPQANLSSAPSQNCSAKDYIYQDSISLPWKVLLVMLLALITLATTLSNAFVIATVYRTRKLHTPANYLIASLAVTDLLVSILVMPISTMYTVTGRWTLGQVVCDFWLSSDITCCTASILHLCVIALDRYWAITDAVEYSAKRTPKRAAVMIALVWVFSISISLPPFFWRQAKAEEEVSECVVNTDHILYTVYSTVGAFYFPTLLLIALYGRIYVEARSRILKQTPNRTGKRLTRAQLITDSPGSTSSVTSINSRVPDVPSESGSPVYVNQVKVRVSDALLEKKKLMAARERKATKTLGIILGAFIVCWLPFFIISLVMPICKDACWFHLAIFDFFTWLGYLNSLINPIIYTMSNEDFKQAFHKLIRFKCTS

Set 1
Target: Sal-like protein 4, full length isoform A (SALL4, Homo sapiens, UniProt Q9UJQ4, residues 1-1053)
Chain of UniProt Q9UJQ4 (whole entry, looked up): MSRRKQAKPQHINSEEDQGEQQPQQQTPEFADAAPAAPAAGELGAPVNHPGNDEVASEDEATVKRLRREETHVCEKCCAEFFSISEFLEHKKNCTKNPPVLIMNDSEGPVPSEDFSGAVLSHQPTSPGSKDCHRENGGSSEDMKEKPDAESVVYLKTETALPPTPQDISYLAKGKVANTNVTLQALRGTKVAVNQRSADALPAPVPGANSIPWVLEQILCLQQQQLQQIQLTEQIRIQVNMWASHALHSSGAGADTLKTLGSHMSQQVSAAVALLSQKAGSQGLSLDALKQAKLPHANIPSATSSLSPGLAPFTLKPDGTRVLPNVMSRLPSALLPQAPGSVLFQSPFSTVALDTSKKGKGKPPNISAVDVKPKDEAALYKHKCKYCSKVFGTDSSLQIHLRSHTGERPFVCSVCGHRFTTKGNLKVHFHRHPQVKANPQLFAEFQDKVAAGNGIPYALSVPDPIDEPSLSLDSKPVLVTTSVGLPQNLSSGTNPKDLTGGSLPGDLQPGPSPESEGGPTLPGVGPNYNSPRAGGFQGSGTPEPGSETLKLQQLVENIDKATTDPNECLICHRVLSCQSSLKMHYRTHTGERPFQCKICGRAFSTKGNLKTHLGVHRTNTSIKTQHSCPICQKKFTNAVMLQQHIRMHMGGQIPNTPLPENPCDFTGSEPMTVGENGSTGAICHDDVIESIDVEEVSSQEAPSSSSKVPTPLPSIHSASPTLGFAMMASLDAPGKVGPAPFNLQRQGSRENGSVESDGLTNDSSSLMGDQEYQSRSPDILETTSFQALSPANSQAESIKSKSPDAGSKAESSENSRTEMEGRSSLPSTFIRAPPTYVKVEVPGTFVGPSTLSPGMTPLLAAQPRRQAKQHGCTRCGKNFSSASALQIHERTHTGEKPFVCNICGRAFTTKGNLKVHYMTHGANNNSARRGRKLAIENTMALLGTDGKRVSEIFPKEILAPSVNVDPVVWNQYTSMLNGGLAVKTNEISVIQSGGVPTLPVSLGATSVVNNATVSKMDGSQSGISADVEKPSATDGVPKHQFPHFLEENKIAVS
Technique: universal PBM
Form: double-stranded DNA, one strand shown
Medium: in vitro
Concentration: 600 nM
Notes: 8-mer, flanks averaged, mean of replicates
Reading: higher = stronger binding
Measurement: E-score
CGAGGTTA: -0.00802
ACTCTACC: -0.0557
ATTGGCGG: 0.00356
AGTCGTAA: 0.179
CCGGACCA: -0.267
CTTTCCTA: 0.0377
ATGAAACA: 0.261
CCTGGAGC: -0.189

Set 2
Target: Mitogen-activated protein kinase kinase kinase kinase 2 (MAP4K2, Homo sapiens, UniProt Q12851)
Read-out: enzyme activity
Action: inhibitor
Concentration: 0.5 µM
Reference: control
Measurement: remaining activity
Construct (Q12851 1-820): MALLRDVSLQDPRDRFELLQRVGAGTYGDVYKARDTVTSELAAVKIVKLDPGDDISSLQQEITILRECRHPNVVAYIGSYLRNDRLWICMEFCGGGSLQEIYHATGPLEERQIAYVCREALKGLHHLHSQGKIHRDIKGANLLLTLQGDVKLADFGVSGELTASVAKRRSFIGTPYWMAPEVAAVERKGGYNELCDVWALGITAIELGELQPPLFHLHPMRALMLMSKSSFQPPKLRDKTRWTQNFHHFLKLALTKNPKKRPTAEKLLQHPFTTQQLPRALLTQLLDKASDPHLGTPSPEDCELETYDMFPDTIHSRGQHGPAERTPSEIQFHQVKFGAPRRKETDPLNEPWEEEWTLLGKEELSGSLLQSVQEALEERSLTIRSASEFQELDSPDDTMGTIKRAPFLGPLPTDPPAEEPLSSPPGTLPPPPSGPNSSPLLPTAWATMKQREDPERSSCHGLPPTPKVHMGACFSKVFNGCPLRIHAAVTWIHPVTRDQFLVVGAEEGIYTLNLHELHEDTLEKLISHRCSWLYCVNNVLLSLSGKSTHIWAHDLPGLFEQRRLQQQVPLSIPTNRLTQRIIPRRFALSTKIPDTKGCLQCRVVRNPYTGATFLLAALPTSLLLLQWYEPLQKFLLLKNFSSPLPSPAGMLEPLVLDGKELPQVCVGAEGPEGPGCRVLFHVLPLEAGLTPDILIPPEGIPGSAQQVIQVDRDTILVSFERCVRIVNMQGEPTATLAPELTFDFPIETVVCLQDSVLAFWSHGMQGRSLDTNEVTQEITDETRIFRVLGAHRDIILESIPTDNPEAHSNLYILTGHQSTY
Cc1cccc(-c2[nH]c(C(C)(C)C)nc2-c2ccc3c(c2)OCO3)n1: 102%
CO[C@H]1C[C@@H]2CC[C@@H](C)[C@@](O)(O2)C(=O)C(=O)N2CCCC[C@H]2C(=O)O[C@H]([C@H](C)C[C@@H]2CC[C@@H](O)[C@H](OC)C2)CC(=O)[C@H](C)/C=C(\C)[C@@H](O)[C@@H](OC)C(=O)[C@H](C)C[C@H](C)/C=C/C=C/C=C/1C: 111%
Cc1ccc(NC(=O)c2ccc(CN3CCN(C)CC3)cc2)cc1Nc1nc(-c2cccnc2)cs1: 103%
CCOC(=O)c1c(C)[nH]c(/C=C2\C(=O)Nc3ccccc32)c1C: 95.5%
O=C(O)c1ccc2c3c1cccc3c(=O)n1c3ccccc3nc21: 38%
O=S(=O)(c1cccc2cnccc12)N1CCCNCC1: 45.7%
Cc1ccc(Nc2nccc(N(C)c3ccc4c(C)n(C)nc4c3)n2)cc1S(N)(=O)=O: 72.5%
OCC(O)CCON=C1C(c2c(O)[nH]c3ccccc23)=Nc2ccccc21 (stereo not drawn): 51.7%
COc1ccc(CNC(=O)Nc2ncc([N+](=O)[O-])s2)cc1: 113%
Nc1[nH]nc2nc3ccccc3nc12: 91.7%
COc1ccc(C(=O)Nc2sc3c(c2C(N)=O)CCCC3)cc1OC: 106%
Cn1c2ccccc2c2c3c(c4c5ccccc5n(CCC#N)c4c21)CNC3=O: 5.68%
Oc1ccc(-c2nc(-c3ccncc3)c(-c3ccc(F)cc3)[nH]2)cc1: 101%

Further values, each from its own experiment
MDH2 (Homo sapiens, UniProt P40926)
cross-linked residues (MAP1B (Homo sapiens, UniProt P46821); cross-linking MS; cell fractions; with: DHSO): E232 to D648

CCC(=O)N[C@@H]1CC[C@H](C(=O)N(C)c2ccc(-c3nc4ccccc4o3)cc2)C1
viability (patient-derived normal-adjacent epithelium organoids; 1 µM; reference: DMSO control): 97.7%

CLTA (Homo sapiens, UniProt P09496)
interaction screen (CLTC (Homo sapiens, UniProt Q00610); cross-linking MS; hits only): cross-linked

Nc1nc(NCc2ccccc2)nc(-c2cccc(CO)c2)n1
inhibition (HTR1B (Homo sapiens, UniProt P28222); ligand displacement; 10 µM): -2.86%

ACTN2 (Homo sapiens, UniProt P35609)
cross-linked residues (KDSR (Homo sapiens, UniProt Q06136); cross-linking MS; cell fractions; with: DMTMM): K748 to E110

ESYT2 (Homo sapiens, UniProt A0FGR8)
cross-linked residues (ESYT1 (Homo sapiens, UniProt Q9BSJ8); cross-linking MS; cell fractions; with: DSSO): K578 to K189

A few entries again (set 2):
Cn1c2ccccc2c2c3c(c4c5ccccc5n(CCC#N)c4c21)CNC3=O: 5.68%
Cc1cccc(-c2[nH]c(C(C)(C)C)nc2-c2ccc3c(c2)OCO3)n1: 102%
